Measured values from different studies.
Each line is one published result; not all experiments were run side by side. Numbers after ± are the reported error.
Method: steady-state kinetics
B1: ileS (Streptococcus pneumoniae, UniProt Q04JB0); chain MKLKDTLNLGKTEFPMRAGLPTKEPVWQKEWEYAKLYQRRQELNQGKPHFTLHDGPPYANGNIHVGHAMNKISKDIIVRSKSMSGFYAPFIPGWDTHGLPIEQVLSKQGVKRKEMDLVEYLKLCREYALSQVDKQREDFKRLGVSGDWENPYVTLTPDYEAAQIRVFGEMANKGYIYRGAKPVYWSWSSESALAEAEIEYHDLVSTSLYYANKVKDGKGVLDTDTYIVVWTTTPFTITASRGLTVGADIDYVLVQPAGEARKFVVAAELLTSLSEKFGWADVQVLETYRGQELNHIVTEHPWDTAVEELVILGDHVTTDSGTGIVHTAPGFGEDDYNVGIANNLEVAVTVDERGIMMKNAGPEFEGQFYEKVVPTVIEKLGNLLLAQEEISHSYPFDWRTKKPIIWRAVPQWFASVSKFRQEILDEIEKVKFHSEWGKVRLYNMIRDRGDWVISRQRAWGVPLPIFYAEDGTAIMVAETIEHVAQLFEEHGSSIWWERDAKDLLPEGFTHPGSPNGEFKKETDIMDVWFDSGSSWNGVVVNRPELTYPADLYLEGSDQYRGWFNSSLITSVANHGVAPYKQILSQGFALDGKGEKMSKSLGNTIAPSDVEKQFGAEILRLWVTSVDSSNDVRISMDILSQVSETYRKIRNTLRFLIANTSDFNPAQDTVAYDELRSVDKYMTIRFNQLVKTIRDAYADFEFLTIYKALVNFINVDLSAFYLDFAKDVVYIEGAKSLERRQMQTVFYDILVKITKLLTPILPHTAEEIWSYLEFETEDFVQLSELPEVQTFANQEEILDTWAAFMDFRGQAQKALEEARNAKVIGKSLEAHLTVYPNEVVKTLLEAVNSNVAQLLIVSELTIAEGPAPEAALSFEDVAFTVERATGEVCDRCRRIDPTTAERSYQAVICDHCASIVEENFAEAVAEGFEEK
B2: PRODH2 157-515 (Homo sapiens, UniProt Q9UF12); chain YGQFVAGETAEEVKGCVQQLRTLSLRPLLAVPTEEEPDSAAKSGEAWYEGNLGAMLRCVDLSRGLLEPPSLAEASLMQLKVTALTSTRLCKELASWVRRPGASLELSPERLAEAMDSGQNLQVSCLNAEQNQHLRASLSRLHRVAQYARAQHVRLLVDAEYTSLNPALSLLVAALAVRWNSPGEGGPWVWNTYQACLKDTFERLGRDAEAAHRAGLAFGVKLVRGAYLDKERAVAQLHGMEDPTQPDYEATSQSYSRCLELMLTHVARHGPMCHLMVASHNEESVRQATKRMWELGIPLDGTVCFGQLLGMCDHVSLALGQAGYVVYKSIPYGSLEEVIPYLIRRAQENRSVLQGARRE
B3: Tat (Mus musculus, UniProt Q8QZR1); chain WNVRPSDMSNKTFNPIRAIVDNMKVKPNPNKTVISLSIGDPTVFGNLPTDPEVTQAMKDALDSGKYNGYAPSIGYLSSREEVASYYHCPEAPLEAKDVILTSGCSQAIELCLAVLANPGQNILIPRPGFSLYRTLAESMGIEVKLYNLLPEKSWEIDLKQLESLIDEKTACLVVNNPSNPCGSVFSKRHLQKILAVAERQCVPILADEIYGDMVFSDCKYEPMATLSTNVPILSCGGLAKRWLVPGWRLGWILIHDRRDIFGNEIRDGLVKLSQRILGPCTIVQGALKSILQRTPQEFYQDTLSFLKSNADLCYGALSAIPGLQPVRPSGAMYLMVGIEMEHFPEFENDVEFTERLIAEQSVHCLPATCFEYPNFFRVVITVPEVMMLEACSRIQEFCEQHY
B4: FabZ (Campylobacter jejuni, UniProt A1VXZ7); chain MIDVMQIQEILPHRYPFLLVDKITELKVKEVVLGYKNISISDHVFMGHFPGHPIYPGVLILEGMAQTGGVLAFESMEDKVDPKSKVVYFTGIDGAKFRNPVRPGDRLDYEMSVVKNRGNMWIFKGQAFVDGNLVAEAELKAMIVDK
B5: HCT R356D (Coleus scutellarioides, UniProt E8ZAP2); chain MKIHVRDSTLVRPSAATPAVSLWNSNVDLVVPNFHTPSVYFYRPSGADNFFDTAVMKAALGRALVSFYPMAGRLKRDEDGRVEIDCNAEGVLFVEAESDGTVDDYGDFAPSLELRRLIPAVDYSQGISAYPLLVLQVTFFKCGGVSLGVGMQHHAADGFSGLHFINTWSDMARGLDITLPPFIDRTLLSARDPPQPQFKHVEYQPPPAMKTYEPAETVVSIFKLTKDQLTTLKAKSKEDGNTTTYSSYEMLSGHVWRCTCLARGLPEEQETKLYIATDGRSRLQPQLPPGYFGNVIFTATPLAVAGDLGSKPVWYAASKIHDALARMDNDYLRSALDFLELQPDLKALVRGAHTFDCPNLGITSWVRLPIHDADFGWGRPIFMGPGGIAYEGLSFVLPSPTNDGSLSVAISLQAEHMKLFEKLLYQI
B6: sacB Y439F (Priestia megaterium, UniProt D5DC07); chain KGNDSKDFNNSYGISHITRDNMVKIPQQQNSDQFKVPAFDESTIKNIASAKGKNASGNTIDLDVWDSWPLQNADGTVATYHGYQIVFALAGDPKDSNDTSVYLFYKKAGDKSIDSWKNAGRVFKDSDKFVPNDPHLKNQTQEWSGSGTLTKDGKVRLFYTDYSGKQYGKQTLTTAQVNMSQPNDNTLKVDGVEDYKSIFDGDGKIYQTVQQFIDEGGYDTGDNHTLRDPHYIEDNGHKYLVFEANTGTEDGYQGEDSLYNRAYYGGNNPFFQSEKKKLLEGSNKEKASLANGALGIIELNDDYTLKKVMKPLITSNTVTDEIERANIFKKDGKWYLFTDSRGSKMTIDGIGQDDVYMLGYVSNTLTGKYKPLNDTGLVLHMDLDPNDKTFTYSHFAVPQTKGDNVVITSFMTNRGFYEDNHSTFAPSFLVNIDGSKTSVVKDRVLEQGQLTVDED
B7: enzyme (Triticum aestivum, UniProt A0A6J4BJH4); chain MPSTESAAGVAWDRRRELQAFDDTKAGVKGLVDAGVTALPPIFRHSPESLESITSSNHVAGAIPTVDLAAPRREDAVALVRHAARTVGFFQVVNHGVPAELMAGMLEGVRRFNEGPAEAKQAIYSRDQARKVRFASNFDLFSSAAANWRDTLFFHLAPDPAPSEELPEAVRDVVTEYGHAVTKVGLSVLELLSESLGLSSDHLRDMDCAENLNAVCQYYPPCPEPYLTWGTKRHTDPGFLTVLLQDGMGGLQVLVDGKTWVDVPPVPGAFIINIGDLLQLVSNDQFRSVEHRVLANKSKDTARVSVASFFNTNIERSTRLYGPITDGRNPPIYRSVTAREFIATFNRIGLDGRSLDQYRLDRDTPTPAVEGCE
B8: LYPLA2 (Homo sapiens, UniProt O95372); chain MCGNTMSVPLLTDAATVSGAERETAAVIFLHGLGDTGHSWADALSTIRLPHVKYICPHAPRIPVTLNMKMVMPSWFDLMGLSPDAPEDEAGIKKAAENIKALIEHEMKNGIPANRIVLGGFSQGGALSLYTALTCPHPLAGIVALSCWLPLHRAFPQAANGSAKDLAILQCHGELDPMVPVRFGALTAEKLRSVVTPARVQFKTYPGVMHSSCPQEMAAVKEFLEKLLPPV
UniProt Q06528, sequence (whole entry, looked up): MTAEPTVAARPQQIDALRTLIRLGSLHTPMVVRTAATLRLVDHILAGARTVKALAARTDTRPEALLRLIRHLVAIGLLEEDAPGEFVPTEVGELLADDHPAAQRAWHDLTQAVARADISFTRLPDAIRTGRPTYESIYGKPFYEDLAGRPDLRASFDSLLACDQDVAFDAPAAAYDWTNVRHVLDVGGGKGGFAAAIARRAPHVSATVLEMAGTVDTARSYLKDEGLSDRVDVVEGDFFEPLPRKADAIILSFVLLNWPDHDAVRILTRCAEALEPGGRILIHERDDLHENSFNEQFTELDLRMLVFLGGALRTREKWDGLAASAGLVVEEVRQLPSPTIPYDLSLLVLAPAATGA
UniProt Q29437, sequence (whole entry, looked up): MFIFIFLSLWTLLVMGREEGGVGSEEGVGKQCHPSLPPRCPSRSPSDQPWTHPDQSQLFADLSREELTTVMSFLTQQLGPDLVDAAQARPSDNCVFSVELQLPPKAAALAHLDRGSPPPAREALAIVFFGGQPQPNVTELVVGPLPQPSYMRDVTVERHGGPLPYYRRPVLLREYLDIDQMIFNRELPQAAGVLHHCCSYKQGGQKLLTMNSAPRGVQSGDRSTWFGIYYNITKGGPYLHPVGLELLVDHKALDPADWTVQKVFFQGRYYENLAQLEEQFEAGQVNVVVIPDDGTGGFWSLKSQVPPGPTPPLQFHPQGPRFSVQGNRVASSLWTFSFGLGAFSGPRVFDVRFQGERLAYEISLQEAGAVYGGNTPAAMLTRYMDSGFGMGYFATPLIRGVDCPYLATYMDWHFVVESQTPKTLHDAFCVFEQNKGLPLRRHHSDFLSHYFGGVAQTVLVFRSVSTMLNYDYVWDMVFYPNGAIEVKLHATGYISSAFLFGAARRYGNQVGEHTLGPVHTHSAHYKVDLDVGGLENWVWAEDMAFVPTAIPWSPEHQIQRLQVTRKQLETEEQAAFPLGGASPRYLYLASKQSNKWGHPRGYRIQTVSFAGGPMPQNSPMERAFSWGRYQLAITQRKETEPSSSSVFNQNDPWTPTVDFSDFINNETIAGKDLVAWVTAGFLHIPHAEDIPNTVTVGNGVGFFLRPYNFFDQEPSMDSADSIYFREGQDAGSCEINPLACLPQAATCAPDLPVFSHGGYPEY
UniProt Q27593, sequence (whole entry, looked up): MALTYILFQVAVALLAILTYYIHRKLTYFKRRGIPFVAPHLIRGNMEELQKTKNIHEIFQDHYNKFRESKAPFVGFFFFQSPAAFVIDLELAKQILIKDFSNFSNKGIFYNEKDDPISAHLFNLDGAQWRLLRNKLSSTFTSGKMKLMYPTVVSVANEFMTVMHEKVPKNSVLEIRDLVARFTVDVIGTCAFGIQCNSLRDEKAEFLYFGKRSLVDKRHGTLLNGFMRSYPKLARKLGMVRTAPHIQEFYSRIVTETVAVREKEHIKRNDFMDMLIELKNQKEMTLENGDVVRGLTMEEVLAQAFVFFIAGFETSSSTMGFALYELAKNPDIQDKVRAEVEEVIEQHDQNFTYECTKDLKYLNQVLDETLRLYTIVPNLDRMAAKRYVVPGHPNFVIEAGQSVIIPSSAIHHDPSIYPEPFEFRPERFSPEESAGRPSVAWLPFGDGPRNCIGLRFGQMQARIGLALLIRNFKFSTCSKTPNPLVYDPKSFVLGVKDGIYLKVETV

| Substance | substrate | test system | conditions | kcat [s⁻¹] |
| --- | --- | --- | --- | --- |
| enzyme (Thermotoga maritima, UniProt Q9WZ18) | Cc1cc2nc3c(=O)[nH]c(=O)nc-3n(C[C@H](O)[C@H](O)[C@H](O)COP(=O)(O)OP(=O)(O)OC[C@H]3O[C@@H](n4cnc5c(N)ncnc54)[C@H](O)[C@@H]3O)c2cc1C |  | pH 7, 80 °C, apparent, cofactor varied | 54 |
| dnrK (Streptomyces peucetius, UniProt Q06528) | CC(=O)[C@]1(O)Cc2c(O)c3c(c(O)c2[C@@H](O[C@H]2C[C@H](N)[C@H](O)[C@H](C)O2)C1)C(=O)c1c(O)cccc1C3=O |  | pH 8, 37 °C, with: AdoMet | 0.0108 ± 0.0005 |
| enzyme (Acetivibrio thermocellus, UniProt A3DC45) | NC(=O)c1ccc[n+]([C@@H]2O[C@H](COP(=O)(O)OP(=O)(O)OC[C@H]3O[C@@H](n4cnc5c(N)ncnc54)[C@H](OP(=O)(O)O)[C@@H]3O)[C@@H](O)[C@H]2O)c1 |  | pH 8, 25 °C, cofactor varied, per site | 35.6 |
| B1 (ileS) | CC(C)C[C@H](N)C(=O)O |  | pH 7.2, 37 °C, with: ATP 2 mM | 0.00267 ± 0.000333 |
| anthranilate synthase (Streptomyces venezuelae, UniProt O30589) | NC(=O)CC[C@H](N)C(=O)O |  | pH 7.5, 30 °C, with: chorismate saturating; MgCl2 12.5 mM | 0.57 ± 0.02 |
| B2 (PRODH2 157-515) | O=C(O)[C@@H]1C[C@@H](O)CN1 |  | pH 7.5, 25 °C, with: CoQ1 electron acceptor 200 µM | 0.19 ± 0.01 |
| CYP6A8 (Drosophila melanogaster, UniProt Q27593) | CCCCCCCCCC(=O)O | DLPC | pH 7.4, 37 °C, total hydroxylation, with: P450 reductase, NADPH | 0.00225 ± 0.000117 |
| protein (Streptomyces glaucescens, UniProt B0B0T9) | Cc1cn([C@H]2C[C@H](O)[C@@H](COP(=O)(O)OP(=O)(O)O[C@H]3O[C@H](C)[C@@H](N)[C@H](O)[C@H]3O)O2)c(=O)[nH]c1=O |  | pH 7.5, 30 °C, apparent, with: maltose 1 mM | 0.0178 ± 0.00467 |
| B3 (Tat) | N[C@@H](Cc1ccccc1)C(=O)O |  | pH 7, 38 °C, 100 mM phosphate, with: 10 mM KGA; PLP | 15.3 ± 3.5 |
| B4 (FabZ) | C/C=C/C(=O)SCCNC(=O)CCNC(=O)[C@H](O)C(C)(C)COP(=O)(O)OP(=O)(O)OC[C@H]1O[C@@H](n2cnc3c(N)ncnc32)[C@H](O)[C@@H]1OP(=O)(O)O |  | pH 7.5, room temperature, NaCl 500 mM, reverse hydration reaction | 0.0515 ± 0.0047 |
| B5 (HCT R356D) | NCCc1ccc(O)c(O)c1 |  | pH 8, pseudo-first-order, with: p-coumaroyl CoA | 1.44 ± 0.05 |
| B6 (sacB Y439F) | OC[C@H]1O[C@@](CO)(O[C@H]2O[C@H](CO)[C@@H](O)[C@H](O)[C@H]2O)[C@@H](O)[C@@H]1O |  | pH 6.6 | 184 ± 7.6 |
| α-amino ester hydrolase (Xanthomonas campestris, UniProt Q8P8K4) | COC(=O)[C@H](N)c1ccccc1 |  | pH 7, 25 °C, phosphate 100 mM | 982 |
| Plasma amine oxidase (Bos taurus, UniProt Q29437) | C[N+](C)(C)CCOc1ccc2cc(CN)ccc2c1 |  | pH 7.2, 30 °C | 0.69 ± 0.01 |
| B7 (enzyme) | O=C1[C@@H](O[C@@H]2O[C@H](CO)[C@@H](O)[C@H](O)[C@H]2O)Oc2ccccc2N1O |  | pH 7.2, 30 °C | 0.524 |
| B8 (LYPLA2) | CN(C)c1ccc(/N=N/c2ccc(C(=O)NCCCn3cc(CCCCCCCCCCCCCCCC(=O)SC[C@H](NC(=O)c4cc5ccc(O)cc5oc4=O)C(=O)N4CCOCC4)nn3)cc2)cc1 |  | pH 7.4, 37 °C | 0.044 ± 0.003 |

A few entries again:
| Substance | substrate | test system | conditions | kcat [s⁻¹] |
| --- | --- | --- | --- | --- |
| α-amino ester hydrolase (Xanthomonas campestris, UniProt Q8P8K4) | COC(=O)[C@H](N)c1ccccc1 |  | pH 7, 25 °C, phosphate 100 mM | 982 |
| Plasma amine oxidase (Bos taurus, UniProt Q29437) | C[N+](C)(C)CCOc1ccc2cc(CN)ccc2c1 |  | pH 7.2, 30 °C | 0.69 ± 0.01 |
